# Published values pooled from the literature.
# Protocols differ between the studies behind these lines. Values joined by “and” are separate records of one study, mostly repeats; a detail may differ. ± marks the error that the study gave.
# CDK14: Cyclin-dependent kinase 14 (CDK14, Homo sapiens, UniProt O94921)
# HTR4: 5-hydroxytryptamine receptor 4 (HTR4, Homo sapiens, UniProt Q13639)
# DCAF1: DDB1- and CUL4-associated factor 1 (DCAF1, Homo sapiens, UniProt Q9Y4B6)
# Nuclear receptor subfamily 2 group C member 2 ligand-binding domain: Nuclear receptor subfamily 2 group C member 2, ligand-binding domain (Homo sapiens, UniProt P49116)
Compound,target,test,system,setting,scale,measurement,result
N#Cc1ccc(Cn2cncc2CN2CCN(c3cccc(OC(F)(F)F)c3)C(=O)C2)cc1F,Cryptococcus neoformans farnesyltransferase,"enzyme activity, inhibitor, fluorescence",,"added: 1 µM FPP, 0.5 µM dansylated peptide",,IC50,120 ± 40 nM
C1=C/COCc2cc(ccc2OCCN2CCCC2)Nc2nccc(n2)-c2cccc(c2)COC/1,CDK14,,,"concentration not given, gene name PFTK1",,percent of control,87%
C=CC(=O)N1CCC(COCC(=O)N2CCN(c3nc(-c4cnc(N)nc4C(F)F)nc(N4CCOC[C@@H]4C)n3)CC2)CC1,"RIPK1 (Homo sapiens, UniProt Q13546)",KINOMEscan,,1 µM,,remaining binding,100%
O=C(O)[C@@H]1CCCN1c1ncnc2[nH]cnc12 (racemic),"S-phase kinase-associated protein 1 (SKP1, Homo sapiens, UniProt P63208)","binding, affinity selection mass spectrometry",,,relative to: other proteins in batch,log fold enrichment,0.0403
N#Cc1ccc2c(-c3ccncc3)c(-c3ccc(F)cc3)nn2c1,"Serine/threonine-protein kinase CBK1 (CBK1, Candida albicans, UniProt Q5AP53)","kinase binding, competitor, MIB/MS competition, measured: CBK1",Candida albicans cell lysate,10 µM,relative to: DMSO,log2 fold change,0.583
Nc1nc2c(ncn2[C@@H]2O[C@H](COP(=O)(O)OP(=O)(O)O)[C@@H](O)[C@H]2O)c(=O)[nH]1,"GUK1 (Homo sapiens, UniProt Q16774, S13A)","binding, ITC",,,,-TΔS,1.32 kcal/mol
CC1=C(/C=C/C(C)=C/C=C/C(C)=C/C=C/C=C(C)/C=C/C=C(C)/C=C/C2=C(C)CCCC2(C)C)C(C)(C)CCC1,"Beta-lactoglobulin (LGB, Bos taurus, UniProt P02754)",fluorescence quenching,,"concentration not given, 298 K",,number of binding sites,1.49
COc1cccc(OC[C@@H]2CN(CC(=O)N3CCc4ccccc43)CCO2)c1,HTR4,radioligand binding,,concentration not given,,inhibition,10.9%
N[C@@H](Cc1ccccc1)C(=O)O,"PAL1 (Petroselinum crispum, UniProt P24481, Y110F)","binding, ITC",,,,ΔG,-6.4 kcal/mol
CC(C)C[C@@H]1NC(=O)[C@H](C(C)C)NC(=O)CNC(=O)[C@H](CC(N)=O)NC(=O)[C@@H]2CCCN2C(=O)[C@H](Cc2ccc(O)cc2)NC(=O)[C@H](CCCNC(=N)N)NC(=O)[C@H](Cc2ccccc2)NC(=O)[C@@H](NC(=O)[C@H](CCCCN)NC(=O)[C@@H]2CCCN2C(=O)[C@H](C)NC(=O)[C@H](C)NC(=O)[C@@H](N)Cc2ccc(O)cc2)CSSC[C@@H](C(=O)N[C@H](C(N)=O)[C@@H](C)O)NC(=O)[C@H](C)NC1=O,"Alpha-2-HS-glycoprotein, asialo (AHSG, Bos taurus, UniProt P12763)","binding, isothermal titration calorimetry",,"pH 7.0, 25 °C, added: asialofetuin",,-TΔS,-3.97 kcal/mol
CC1(C)CC2(C)OC(=O)NC2(C)c2ccccc21 (centres unmarked),DCAF1,"binding, affinity selection mass spectrometry",,,relative to: other proteins in batch,log fold enrichment,-0.0886
O=C1OC(c2ccccc2)=N/C1=C\c1ccccc1,"MAL12 (Saccharomyces cerevisiae S288c, UniProt P53341)","inhibitor, Lineweaver-Burk",,"3200 ppm, added: pNPG substrate",,Vmax,0.01 mM/min
CCOCc1nc(O)c(-c2nnc(Cc3ccc(Cl)cn3)o2)c(O)c1-c1c(OC)cccc1OC,"Apelin receptor (APLNR, Homo sapiens, UniProt P35414)","Gα12/P115 activation, agonist, BRET biosensor",HEK293,,,Emax,92 ± 10%
CC[S+]([O-])c1nc(-c2ccccc2)cc(C(F)(F)F)n1 (centres unmarked),"Exportin-1 (XPO1, Homo sapiens, UniProt O14980)","nuclear export, high content imaging",HeLa Kyoto reporter,"0.5 µM, 2 h",,cells with nuclear reporter,2.14% and 5.4% and 3.98%
Nc1ncnc2c1ncn2[C@@H]1O[C@H](COP(=O)(O)OP(=O)(O)OP(=O)(O)O)[C@@H](O)[C@H]1O,"P2X purinoceptor 7 (P2rx7, Rattus norvegicus, UniProt Q64663, I214A/R125A)","ion current, agonist, two-electrode voltage clamp",Xenopus laevis oocytes,1.1 µM,relative to: highest concentration response,normalized current,0
C[C@@](Cc1ccc(O)c(O)c1)(NN)C(=O)O,Nuclear receptor subfamily 2 group C member 2 ligand-binding domain,SPR imaging,,600 nM,,koff,5.56e-07 s⁻¹
Nc1ncnc2c1ncn2[C@@H]1O[C@H](COP(=O)(O)CP(=O)(O)OP(=O)(O)O)[C@@H](O)[C@H]1O,"P2X purinoceptor 1 (P2RX1, Homo sapiens, UniProt P51575, L218T)",saturation binding,HEK293,103 nM,,specific binding,4670 CCPM and 4350 CCPM
O=C1c2ccccc2CCN1CCCCN1CCN(c2cccc(Cl)c2Cl)CC1,HTR4,radioligand binding,,concentration not given,,inhibition,24.3%
OCC(CO)N[C@H]1C[C@](O)(CO)[C@@H](O)[C@H](O)[C@H]1O,Nuclear receptor subfamily 2 group C member 2 ligand-binding domain,SPR imaging,,600 nM,,koff,1.49e-07 s⁻¹
Nc1ncnc2c1ncn2[C@@H]1O[C@H](COP(=O)(O)OP(=O)(O)OP(=O)(O)O)[C@@H](O)[C@H]1O,"ATP-sensitive inward rectifier potassium channel 1 (Rattus norvegicus, UniProt P35560)",inside-out patch clamp,"renal principal cells, rat",0.4 mM,,short closed time,0.9 ms
O=C(O)c1ccccc1OC1=NS(=O)(=O)c2ccccc21,"PKLR (Homo sapiens, UniProt P30613)","enzyme activity, activator",,10 µM,,activity,inactive
CCCC[C@H]1CN(c2cccc(OC(F)(F)F)c2)C(=O)CN1Cc1cncn1Cc1ccc(Br)cc1,"Protein farnesyltransferase (Cryptococcus neoformans, UniProt J9VSJ6+T2BPA1)",uncompetitive inhibitor,,"L state, no phosphate",,Ki,750 nM
CC(=O)c1ccc2cc(S(=O)(=O)Nc3ccc(F)cc3)ccc2c1,"STAT3 (Homo sapiens, UniProt P40763)","tyrosine phosphorylation, inhibitor, ELISA, measured: phospho-Tyr705",,,,Hill slope,-0.424
C[C@H](N)C(=O)N[C@@H](CCCNC(=N)N)C(=O)N[C@H](C(=O)N[C@@H](C)C(=O)N[C@@H](CCC(N)=O)C(=O)N[C@H](C(=O)N[C@@H](C)C(=O)N[C@@H](CCCNC(=N)N)C(=O)N[C@@H](CCCCN)C(=O)N[C@@H](CO)C(=O)O)[C@@H](C)O)[C@@H](C)O,"Transcriptional regulator ATRX (ATRX, Homo sapiens, UniProt P46100, F284Y/K251R)",isothermal titration calorimetry,,"concentration not given, pH 7.5, 25.0 °C",,binding enthalpy,-4.7 kcal/mol
CN1C(C(=O)Nc2ccccn2)=C(O)c2sc(Cl)cc2S1(=O)=O,Nuclear receptor subfamily 2 group C member 2 ligand-binding domain,SPR imaging,,600 nM,,koff,4.55e-08 s⁻¹
CC(=O)NCCCC[C@H](NC(=O)CNC(=O)CNC(=O)[C@H](CCCCNC(C)=O)NC(=O)CNC(=O)[C@H](CCCNC(=N)N)NC(=O)CNC(=O)[C@@H](N)CO)C(=O)NCC(=O)N[C@@H](CC(C)C)C(=O)NCC(N)=O,"BRD1 (Homo sapiens, UniProt O95696, R585F)","binding, ITC",,"15 °C, added: peptide 2 mM",,TΔS,0.297 kcal/mol
O=C(C1CCCCC1)N1CC(=O)N2CCc3ccccc3C2C1 (centres unmarked),Nuclear receptor subfamily 2 group C member 2 ligand-binding domain,SPR imaging,,600 nM,,koff,2.3e-05 s⁻¹
[O-][S+]1CCCCS1 (centres unmarked),"SOD1 (Homo sapiens, UniProt P00441, G94A)",intact protein LC-MS,"SOD1 G93A transgenic mice, whole blood","oral, 150 mg/kg, 4 h, mean of two mice",,target engagement,41.3 % cross-linked dimer
CC[C@@H]1C(=O)OC[C@@H]1Cc1cncn1C.Cl,Nuclear receptor subfamily 2 group C member 2 ligand-binding domain,SPR imaging,,600 nM,,koff,3.01e-06 s⁻¹
O=C1Nc2c(ccc(Cl)c2Cl)C1=NO,"KCNN4/CALM1 (Homo sapiens, UniProt O15554+P0DP23)","ion current, activator, whole-cell patch clamp",HEK293,250 nM,relative to: baseline,current increase,36 fold
O=C(O)c1ccc(Nc2ncc3c(n2)-c2ccc(Cl)cc2C(c2c(F)cccc2F)=NC3)cc1,human TAK1(h),kinase activity,,1 µM,,remaining activity,111%
C[S+](CC[C@H](N)C(=O)O)C[C@H]1O[C@@H](n2cnc3c(N)ncnc32)[C@H](O)[C@@H]1O (some centres unmarked),"O-methyltransferase (Sorghum bicolor, UniProt A0A1B6PFV1)",,,"concentration not given, added: PTR+",,ΔH of binding,-4.54 ± 2.67 kcal/mol
c1ccc(C(NCc2cccnc2)(c2ccccc2)c2ccccc2)cc1,"KCNQ1 (Homo sapiens, UniProt P51787)",whole-cell patch clamp,,"100 pM, repolarization to -120 mV",,reactivating channels,38 ± 22%
O=C(COP(=O)(O)O)[C@@H](O)[C@H](O)[C@H](O)COP(=O)(O)O,"Small ribosomal subunit protein eS7 (Homo sapiens, UniProt P62081)","thermal proteome profiling, measured: RPS7",HepG2 cell lysate,"concentration not given, 57 over 37 °C",relative to: compound over control,thermal stability ratio,0.769 and 0.389 and 0.714
O=S(=O)(O)C1CCNCC1,"SLC6A6 (Homo sapiens, UniProt P31641, G62A)","binding, microscale thermophoresis",,"62.5 µM, room temperature, added: 50 nM labelled protein",higher = more binding,normalised MST signal,-0.0712
CC[C@@H]1[C@H](F)C(=O)N[C@@H]1COc1nccc2cc(C(N)=O)c(OC)cc12,CDK14,"ATP probe binding, KiNativ profiling, measured: Lys1 probe site",THP-1 cell lysate,0.2 mM,,inhibition,-6.5%
CCN1CCC[C@H]1CNC(=O)c1c(O)c(Cl)cc(Cl)c1OC,"SUCNR1 (Homo sapiens, UniProt Q9BXA5)","β-arrestin recruitment, TANGO luminescence",,concentration not given,relative to: basal luminescence,log2 fold change,0.504
Clc1ccc(C(Cn2ccnc2)OCc2ccsc2Cl)c(Cl)c1 (centres unmarked),Nuclear receptor subfamily 2 group C member 2 ligand-binding domain,binding,,,,koff,3.97e-07 s⁻¹
CC(C)OCCn1c(=S)[nH]c(=O)c2[nH]ccc21,"Myeloperoxidase (Mus musculus, UniProt P11247)",,"mouse, zymosan or thioglycolate peritonitis, peritoneal fluid",60 mg/kg,relative to: peritonitis vehicle,MPO activity,45.4% and 38.1% and 45.9% and 40.3% and 29.4% and 32.7%
Cc1ccccc1C1CC(=O)c2c(C)nc(N)nc2C1 (centres unmarked),DCAF1,"binding, affinity selection mass spectrometry",,,relative to: other proteins in batch,log fold enrichment,-0.0483
Nc1nc2c(ncn2[C@@H]2O[C@H](COP(=O)(O)O)[C@@H](O)[C@H]2O)c(=O)[nH]1,"GUK1 (Homo sapiens, UniProt Q16774)","enzyme activity, NADH-coupled",,"125 µM, added: NaCl 150 mM",,reaction velocity,0.0713 µM/s and 0.074 µM/s and 0.0442 µM/s
CC[C@H](C)[C@@H]1NC(=O)[C@H](Cc2ccc(O)cc2)NC(=O)CSC[C@@H](C(N)=O)NC(=O)CNC(=O)[C@H](Cc2c[nH]cn2)NC(=O)[C@H](CCCNC(=N)N)NC(=O)[C@H](CC(N)=O)NC(=O)[C@@H]2CCCN2C(=O)[C@H](Cc2ccccc2)NC(=O)[C@H]([C@@H](C)O)NC(=O)CNC(=O)[C@H](CC(C)C)NC(=O)[C@@H]2CCCN2C(=O)[C@H]([C@@H](C)O)NC(=O)[C@H](CCCCN)NC1=O,"VPS35/VPS29 (Homo sapiens, UniProt Q96QK1+Q9UBQ0)","binding, ITC",,"25 °C, heterodimer",,ΔG,-9.6 ± 0.07 kcal/mol
COc1cc(-c2cncc3c2CN(C)Cc2cc(N4CCNCC4)ccc2-3)cc(OC)c1OC,"TSSK1B (Homo sapiens, UniProt Q9BXA7)",kinase activity,,"1 µM, human enzyme, added: ATP 10 µM",relative to: DMSO control,remaining activity,107%
O=c1nc(SCc2cc(F)cc(C(F)(F)F)c2)nc(SCc2ccc3nc(OCCN4CCOCC4)ccc3c2)[nH]1,"TOP2A (Homo sapiens, UniProt P11388)",decatenation,,15.6 µM,,mean decatenated DNA,79.3%
